Published values gathered from unrelated publications.
A part holds a random share of what one study measured. Substitutions count along the parent as printed.

Sample 1 — target: CCNA2, cyclin fold, Cln2 fusion (human); technique: yeast growth competition, sequencing; sample: yeast; setting: strong parent motif; reference: not given; reading: higher = stronger binding
Starting sequence: ASZ1 docking peptide (human); GFGFLLFICKLTF; partner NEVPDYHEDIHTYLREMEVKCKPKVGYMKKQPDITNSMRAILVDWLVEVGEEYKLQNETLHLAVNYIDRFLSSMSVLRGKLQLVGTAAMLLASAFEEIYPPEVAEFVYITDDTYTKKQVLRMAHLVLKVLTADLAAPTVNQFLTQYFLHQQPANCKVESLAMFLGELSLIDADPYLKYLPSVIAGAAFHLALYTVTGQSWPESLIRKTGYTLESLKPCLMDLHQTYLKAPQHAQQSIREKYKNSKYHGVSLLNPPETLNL
Change | normalised enrichment score
GFGFALFICKLTF [L5A] | 1.4
GFGFLAFICKLTF [L6A] | 1.65
AFGFLLFICKLTF [G1A] | 1.38
GAGFLLFICKLTF [F2A] | 1.1
GFGFLLAICKLTF [F7A] | 1.25
GFGFLLFICKLTA [F13A] | 1.33
GFGALLFICKLTF [F4A] | 1.32

Sample 2 — technique: protein-binding microarray; molecule type: double-stranded DNA, one strand shown; sample: in vitro; tested at: 250 nM; setting: 60-bp whole probe; together with: salmon DNA 0.4 mg/ml; reference: random background probes; reading: higher = stronger binding; constant ends, left off below: GCCTAGCAC … GTCTTGATTCGCTTGACGCTGCTG
Target: Interferon regulatory factor 5, full length, phosphomimetic (IRF5, Homo sapiens, UniProt Q13568-2, residues 1-514, K96S/S451D/S453D/S456D/S462D)
Strand | log fluorescence [z-score]
TCAGTTTTGAGCTCTGTCACTGTGCTA | 0.425
TTATGTTTCGGTCTCGGTTAGTGCTAG | 10.5
TCAATTCCTGATCTCTGACTGTGCTAG | 0.108
GACGAACAGAGTATCGAGACGTGCTAG | 0.922
GACGATTTCAGACTGGGGACGTGCTAG | 0.242
CTTCCACTTAGGGTGGCTGGGTGCTAG | 0.201
TGAGGACTGGACTTTCGGTTAGTGCTA | 9.3
TCATTTTTCCCCTGCACACTGTGCTAG | 0.958
TCAAGTTGTACTTTCTAACTGTGCTAG | 0.925
CACGGTTTCGGTATCGGGACGTGCTAG | 9.75
TTTGAACTGAGTCTCGATTAGTGCTAG | 0.736
GACGGAATCGGTTTCGGGACGTGCTAG | 5.01
TTAGGTATCGGTTTCGGTTTGTGCTAG | 10.3
TATCAGGGCATCCCCTTGAAGTGCTAG | 1.28
TTTGGTATCCTTTTCCTTTAGTGCTAG | 1.23
TCATACATGTGTTTAAGACTGTGCTAG | 0.282
TTATGTATCGGGTATCGGTTAGTGCTA | 6.87
TTAGGTGTCCTTTTCCTTTAGTGCTAG | 0.331
TCAAATTAGAATTTAAAACTGTGCTAG | 0.41
GACGGTATCGACTTTCGGAACGTGCTA | 7.54
TTAGGTTTCCCTTTCCTTTAGTGCTAG | 1.72
TCATCTTTCCTCACCATACTGTGCTAG | 0.956
CTAGGTTTCGACTATCGGTTAGTGCTA | 9.21
TCAATTCTCGGGACTCACACTGTGCTA | 0.384
GACGGTCTCCTTATCCTGTCGTGCTAG | -0.0513

Sample 3 — technique: protein binding microarray; molecule type: double-stranded DNA, one strand shown; sample: in vitro; tested at: not given; reference: not given; reading: higher = stronger binding
Target: Histone acetyltransferase KAT6A, both winged helices, GST fusion (KAT6A, Homo sapiens, UniProt Q92794, residues 1-181)
Setting: 8-mer, flanks averaged, mean of 2 arrays, mostly near background
Target sequence (chain): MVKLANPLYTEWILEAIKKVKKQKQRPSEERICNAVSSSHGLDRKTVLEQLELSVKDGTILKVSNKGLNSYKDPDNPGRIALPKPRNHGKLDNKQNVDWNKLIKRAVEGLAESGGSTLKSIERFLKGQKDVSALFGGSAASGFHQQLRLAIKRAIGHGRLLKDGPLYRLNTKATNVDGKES
Strand | E-score
AGTACTTC | -0.0436
GCATCTTA | -0.11
ATTTCATC | -0.0696
TAAAGTAA | -0.00592
TCCAAAGA | -0.0775
GCCGTTAC | 0.296
CGTCGCCC | 0.202
CAAGGCCA | -0.105
ACTTTGCC | 0.0145
AATGGGTG | -0.282
ACGACAAA | 0.0326
AGCTCCGC | 0.127
CAGTGCAG | -0.0448
GGACCGTA | 0.189
ACCGCGAA | 0.282
ACCAGGGA | -0.293
CATGTTCG | 0.0239
CCAAAGGA | -0.129

Sample 4 — technique: RNA Bind-n-Seq; molecule type: RNA; sample: in vitro; tested at: 365 nM; reference: no-protein control; reading: higher = stronger binding
Target: RNA binding protein fox-1 homolog 2, RRM domain, GST-SBP tag (RBFOX2, Homo sapiens, UniProt O43251-10, residues 100-194)
Setting: natural RNA segment, single round, ends assumed
Constant ends, left off below: GGGAGUUCUACAGUCCGACGAUC … UGGAAUUCUCGGGUGCCAA
Residues (chain): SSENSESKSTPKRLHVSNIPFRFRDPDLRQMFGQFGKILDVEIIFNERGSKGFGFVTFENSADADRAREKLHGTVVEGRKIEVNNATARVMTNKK
Strand | RBNS enrichment (R)
GCUUAGGACACACAGAUAAAGUAGAGCUGAAACACGGGCCAAAACAUCCCCAGACAAGGAUGGCACAAGAGGCCAAAUUUGAAGGCCUUGGGAGAGAAGCCAUUUCCCCU | 0.497
GGGAUUUGUAGUAUCAGCUUGUUGAGCAAUGACUUUGAAUCUAGUUUUCAGUGAUCAGAAGCAGCAGUUAUUUGAGUGUAUGAAUGGAAUGAUGAUCACUGUGCUAUAAU | 7.95
CCAUUACUGCAUUGUCAAAUUCCUACUGACGACAUUAUAACUGUACGGGAGCUUAACUUUAUAAGGAAAUGUAUUUUGACACUGAUAUCUUAUUAAAGUAUUCUGAUCCU | 0.412
UCAAUCUCUACUAGGUUAUAAGUAGUAUACACAGAUUUACCCUGCCCUUGAACUUGAAGGACAUUAAAUUAUUAAUGAUCAUUUGGUAACAUGUUUACCUGAUUAUCUUC | 0.328
CAUACUAUGCAGUUUUUAUGUUUUCCAUAGUAAGUCAGAAAAUGCCUCCUAUUUCUGGCAUCAGAACUUUGCCAUUUGUCUACAGAAGACGAACCAGAGACAAAAUUACU | 0.629
GCCUGCAGUCAGUUAUUAUGUAUAGGAGGUGAGCUAGUUAACAAACUUGUACCACAAAACAAUAUCGCUUUAACUUUUCUAAAGCCAAAUUUCCCAUGUAAGCUGCAGUU | 0.33
GUUUUCAUUGAUUAUAUGGGUAUAUAUUCAUCUAAUAAAUCAGUGAACUGUUCCUCAUGUUGCUGAAUUUGUAGUUGUUGGUUUAUUUUAAUGGUAUGUACAAGUUGAGU | 1.01
UUUUUAACAAAUUUGCAUGUCAGUUUCUGUCAUGUUUAUUUAUUGGAUUCUCAGCUGCCUAAUCUGUACAUACCUGAUCCCUCGGGUUUUGUUUACAAGGAAUCUUGACU | 0.212
GAGCCACUUUAUCUCCUUUUGGCAAUCUGAGUAGGCGGGGAACCUAGGCAGGGCUGGCUUUCUUAGCGUGUAACUUGUGUAGCAGCACAGGGCCCACACUUAGAAGGACC | 0.403
CAGCCUGCCCAUGGCACCCCAAAAGCAAGAUCCUGGAGAUCACAUUUGAUCCUACCAAAACCACUGCUGCUGUUUCUGAGAAAAGAAAGCAUUUUAUUCACCUGCAAGAU | 0.932
GCCAGAAAAGGAAAGACACUGGGGGACUUCAACAGUUAAGCUCAAGUUGCCAAUUUGCUAUAAAUCCCUUUUGCCAUCAGUCUGCUUACAGUGAUAUAUAUAGUGUUCUU | 0.381
AUUCCAGAAUGGGGAUAGGCUGAAACCCCCUUCCAGCCUCUGGAAGACACUGGCCUGCAUCAGUUAGAGUCAGAGCAAGUGUCACUUCACAGGGAAAAGAAGGAUUAUAU | 0.227

Sample 5 — technique: competition protein-binding microarray; molecule type: double-stranded DNA, one strand shown; sample: in vitro; tested at: 2 µM; together with: Cbf1 competitor, 0.05 µM; reading: higher = stronger binding; constant ends, left off below: … GTCTTGATTCGCTTGACGCTGCTG
Target: Phosphate system positive regulatory protein PHO4, full length, GST-tagged (PHO4, Saccharomyces cerevisiae, UniProt P07270, residues 1-312)
Setting: whole 60-bp probe, lowest competitor level
Construct (chain): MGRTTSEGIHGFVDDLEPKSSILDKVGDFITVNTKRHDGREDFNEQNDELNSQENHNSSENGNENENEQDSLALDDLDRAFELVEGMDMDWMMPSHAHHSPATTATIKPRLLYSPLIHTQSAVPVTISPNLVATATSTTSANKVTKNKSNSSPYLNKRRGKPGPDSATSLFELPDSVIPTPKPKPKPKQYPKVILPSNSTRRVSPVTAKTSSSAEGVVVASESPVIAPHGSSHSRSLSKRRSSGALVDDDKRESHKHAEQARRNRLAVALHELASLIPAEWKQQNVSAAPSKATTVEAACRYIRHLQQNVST
Strand | fluorescence intensity [a.u.]
TGCGCAACAACTTGATACGTGGGTGTATGTCTAGAA | 8380
GTTTCTTCCTCTGGATACGTGGGACAGCTTGATGCT | 6240
AAATTACTAAGTTGAGGCGTGGGTGACGCCGTATGA | 7740
CGTCCTAGTGATTGTCACTCAACTTCCATGAGGAAG | 4350
TTGTCGCTCGAAGGACACGTGTACTCATAATAACCC | 15400
AAATTACTAAGTTTTCACGTGTCTTACCCCGTATGA | 14500
CGTCCTAGTGATTGTCACGACACTTCCATGAGGAAG | 5660
CGCATTATGTTAAGCATTGCCATTGCGGTAACTTCA | 4070
AACCTCTCAACAAAGCACGCTATGTACACACATCTA | 8400
AGAATGGGCGGTTTGCACGTGAAGGTGATGTCTTGT | 13000
AAATTACTAAGTTGAGAAGTGGGTGACGCCGTATGA | 3980
AAATTACTAAGTTGTCACCTTACTTACCCCGTATGA | 4040
AGTGTTTCAAGCCATCACGTCGACTAACGACAAAGT | 4970
CGTCCTAGTGATTGTCGCGTGGGTGCCATGAGGAAG | 10400
ACTGTTATTTTGATGTACATGACAGTACGTTATTCT | 5420
TGCGCAACAACTTGTCACAATACTTTATGTCTAGAA | 3250
TTACTCAGGAGATTGCACGTTGAAGCAGTACGTTGA | 10700
GGATAATTTTCAGGACACGTGTTTCGAAAGGTTTGT | 19600

Mixed results
Substance | target | test | system | setting | scale | quantity | result
PhoQ, residues 284 288 289 292 302 303 SACGEM | PhoP, residues 12 14 15 18 19 GHCSL (Escherichia coli, UniProt P23836) | Sort-seq, item: YFP reporter | E. coli | PhoQ-PhoP variant library, together with: 10 µM Mg2+ | reference: high Mg2+ state, higher = stronger signaling | fold induction | 14.7

Some of these lines once more (sample 3):
Strand | E-score
ACGACAAA | 0.0326
TCCAAAGA | -0.0775
AATGGGTG | -0.282
CATGTTCG | 0.0239
CGTCGCCC | 0.202
CCAAAGGA | -0.129
